Results of several laboratories.
Several values in a cell are separate wells, animals, samples, runs or records. ± marks the error that the study gave.
Mitogen-activated protein kinase 14: Mitogen-activated protein kinase 14 (Rattus norvegicus, UniProt P70618)
UniProt P70618, sequence (whole entry, looked up): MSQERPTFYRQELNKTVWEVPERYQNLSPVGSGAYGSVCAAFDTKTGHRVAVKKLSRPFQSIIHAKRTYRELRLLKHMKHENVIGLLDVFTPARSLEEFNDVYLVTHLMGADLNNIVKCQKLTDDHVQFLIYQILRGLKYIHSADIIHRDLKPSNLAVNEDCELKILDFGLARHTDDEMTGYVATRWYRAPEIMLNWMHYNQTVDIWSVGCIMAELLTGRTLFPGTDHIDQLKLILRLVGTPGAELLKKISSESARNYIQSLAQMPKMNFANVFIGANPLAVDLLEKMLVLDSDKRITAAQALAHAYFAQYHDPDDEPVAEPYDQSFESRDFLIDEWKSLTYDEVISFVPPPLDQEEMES
CYP2D6: Cytochrome P450 2D6 (CYP2D6, Homo sapiens, UniProt P10635)
BCHE: Cholinesterase (BCHE, Equus caballus, UniProt P81908)
UniProt P81908, sequence (whole entry, looked up): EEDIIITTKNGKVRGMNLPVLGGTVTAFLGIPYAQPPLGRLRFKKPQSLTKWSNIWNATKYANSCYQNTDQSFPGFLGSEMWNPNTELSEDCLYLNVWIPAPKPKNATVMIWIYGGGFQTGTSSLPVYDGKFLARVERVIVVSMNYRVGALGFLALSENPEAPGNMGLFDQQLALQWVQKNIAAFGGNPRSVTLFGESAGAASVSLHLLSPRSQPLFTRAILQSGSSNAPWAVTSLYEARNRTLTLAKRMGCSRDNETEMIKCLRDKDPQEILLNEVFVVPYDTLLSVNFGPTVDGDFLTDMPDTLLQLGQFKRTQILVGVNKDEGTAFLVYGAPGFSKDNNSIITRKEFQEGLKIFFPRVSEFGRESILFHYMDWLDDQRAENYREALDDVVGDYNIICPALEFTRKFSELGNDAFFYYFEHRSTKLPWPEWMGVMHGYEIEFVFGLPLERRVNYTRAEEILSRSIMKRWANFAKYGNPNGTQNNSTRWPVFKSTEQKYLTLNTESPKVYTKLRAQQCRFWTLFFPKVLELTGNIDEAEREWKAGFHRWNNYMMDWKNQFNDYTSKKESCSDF
CTSL: Procathepsin L (CTSL, Homo sapiens, UniProt P07711)
UniProt P07711, sequence (whole entry, looked up): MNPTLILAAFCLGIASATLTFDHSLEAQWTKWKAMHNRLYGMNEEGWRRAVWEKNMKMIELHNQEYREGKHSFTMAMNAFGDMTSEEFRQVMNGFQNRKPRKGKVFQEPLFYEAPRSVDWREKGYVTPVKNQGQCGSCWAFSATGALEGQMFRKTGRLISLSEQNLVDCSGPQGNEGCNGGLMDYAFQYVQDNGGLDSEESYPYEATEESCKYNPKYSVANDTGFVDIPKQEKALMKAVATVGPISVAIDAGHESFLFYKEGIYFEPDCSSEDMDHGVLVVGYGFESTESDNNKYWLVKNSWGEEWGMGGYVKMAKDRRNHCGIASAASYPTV
UniProt P32245, sequence (whole entry, looked up): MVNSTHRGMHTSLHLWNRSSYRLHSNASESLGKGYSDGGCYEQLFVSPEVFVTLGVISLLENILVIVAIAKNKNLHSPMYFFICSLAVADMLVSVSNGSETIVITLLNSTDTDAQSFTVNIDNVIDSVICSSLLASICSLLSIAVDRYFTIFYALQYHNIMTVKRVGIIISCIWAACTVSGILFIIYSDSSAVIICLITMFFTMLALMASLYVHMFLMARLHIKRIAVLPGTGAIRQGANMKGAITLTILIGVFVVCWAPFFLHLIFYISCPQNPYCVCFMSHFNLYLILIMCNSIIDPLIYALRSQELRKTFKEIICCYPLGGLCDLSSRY
UniProt P46116, sequence (whole entry, looked up): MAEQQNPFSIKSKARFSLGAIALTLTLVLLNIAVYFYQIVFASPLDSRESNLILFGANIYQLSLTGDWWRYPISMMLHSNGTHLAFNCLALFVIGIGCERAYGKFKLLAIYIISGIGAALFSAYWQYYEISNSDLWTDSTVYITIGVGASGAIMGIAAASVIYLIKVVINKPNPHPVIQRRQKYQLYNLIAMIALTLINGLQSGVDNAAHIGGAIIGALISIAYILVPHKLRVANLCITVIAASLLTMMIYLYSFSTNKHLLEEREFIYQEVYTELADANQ
UniProt P14618, sequence (whole entry, looked up): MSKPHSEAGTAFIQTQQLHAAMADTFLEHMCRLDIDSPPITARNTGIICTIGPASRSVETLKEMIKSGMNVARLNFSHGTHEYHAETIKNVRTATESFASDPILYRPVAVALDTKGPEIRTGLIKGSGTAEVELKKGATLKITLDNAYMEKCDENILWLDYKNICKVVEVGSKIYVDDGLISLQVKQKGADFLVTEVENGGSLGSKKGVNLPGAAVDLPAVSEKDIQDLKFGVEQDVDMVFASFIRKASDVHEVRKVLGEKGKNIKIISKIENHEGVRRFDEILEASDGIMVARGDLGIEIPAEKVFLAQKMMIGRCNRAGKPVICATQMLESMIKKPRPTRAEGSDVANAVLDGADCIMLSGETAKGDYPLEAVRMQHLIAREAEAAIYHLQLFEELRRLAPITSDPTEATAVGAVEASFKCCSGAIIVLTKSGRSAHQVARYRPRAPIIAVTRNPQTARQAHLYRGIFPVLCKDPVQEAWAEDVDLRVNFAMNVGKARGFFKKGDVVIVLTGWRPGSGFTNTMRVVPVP
UniProt P10613, sequence (whole entry, looked up): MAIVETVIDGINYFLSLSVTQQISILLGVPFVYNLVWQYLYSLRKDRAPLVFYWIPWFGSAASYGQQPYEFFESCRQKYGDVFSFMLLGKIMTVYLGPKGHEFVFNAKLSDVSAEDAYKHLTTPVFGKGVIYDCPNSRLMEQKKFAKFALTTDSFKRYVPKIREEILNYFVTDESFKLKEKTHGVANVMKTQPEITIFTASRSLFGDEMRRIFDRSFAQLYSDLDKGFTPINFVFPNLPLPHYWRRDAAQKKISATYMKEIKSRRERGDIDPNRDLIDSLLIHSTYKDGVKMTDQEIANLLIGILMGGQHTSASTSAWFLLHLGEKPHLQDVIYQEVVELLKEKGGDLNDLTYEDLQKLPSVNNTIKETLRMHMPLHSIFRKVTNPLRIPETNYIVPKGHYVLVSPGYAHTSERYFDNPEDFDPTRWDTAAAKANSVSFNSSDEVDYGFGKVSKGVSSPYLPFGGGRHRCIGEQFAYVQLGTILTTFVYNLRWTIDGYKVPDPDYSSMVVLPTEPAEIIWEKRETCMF
UniProt Q9UQ49, sequence (whole entry, looked up): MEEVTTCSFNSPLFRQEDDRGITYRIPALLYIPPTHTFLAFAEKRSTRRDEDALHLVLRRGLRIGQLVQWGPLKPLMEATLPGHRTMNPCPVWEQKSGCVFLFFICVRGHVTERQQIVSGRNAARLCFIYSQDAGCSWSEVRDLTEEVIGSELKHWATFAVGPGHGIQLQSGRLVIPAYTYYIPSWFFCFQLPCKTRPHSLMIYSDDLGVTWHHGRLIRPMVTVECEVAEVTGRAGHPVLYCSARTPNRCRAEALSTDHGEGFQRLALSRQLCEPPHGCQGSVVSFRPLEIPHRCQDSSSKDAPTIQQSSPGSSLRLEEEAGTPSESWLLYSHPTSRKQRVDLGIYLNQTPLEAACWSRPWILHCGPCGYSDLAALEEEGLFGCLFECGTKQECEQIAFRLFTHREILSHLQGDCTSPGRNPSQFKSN
UniProt Q99436, sequence (whole entry, looked up): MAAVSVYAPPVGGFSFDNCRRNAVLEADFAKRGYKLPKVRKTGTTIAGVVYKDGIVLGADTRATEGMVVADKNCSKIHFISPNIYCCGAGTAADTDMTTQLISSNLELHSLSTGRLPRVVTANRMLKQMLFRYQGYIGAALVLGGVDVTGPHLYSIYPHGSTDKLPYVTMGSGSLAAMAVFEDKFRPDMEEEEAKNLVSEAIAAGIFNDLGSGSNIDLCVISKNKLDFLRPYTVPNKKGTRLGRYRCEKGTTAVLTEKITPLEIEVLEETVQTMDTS
UniProt Q14432, sequence (whole entry, looked up): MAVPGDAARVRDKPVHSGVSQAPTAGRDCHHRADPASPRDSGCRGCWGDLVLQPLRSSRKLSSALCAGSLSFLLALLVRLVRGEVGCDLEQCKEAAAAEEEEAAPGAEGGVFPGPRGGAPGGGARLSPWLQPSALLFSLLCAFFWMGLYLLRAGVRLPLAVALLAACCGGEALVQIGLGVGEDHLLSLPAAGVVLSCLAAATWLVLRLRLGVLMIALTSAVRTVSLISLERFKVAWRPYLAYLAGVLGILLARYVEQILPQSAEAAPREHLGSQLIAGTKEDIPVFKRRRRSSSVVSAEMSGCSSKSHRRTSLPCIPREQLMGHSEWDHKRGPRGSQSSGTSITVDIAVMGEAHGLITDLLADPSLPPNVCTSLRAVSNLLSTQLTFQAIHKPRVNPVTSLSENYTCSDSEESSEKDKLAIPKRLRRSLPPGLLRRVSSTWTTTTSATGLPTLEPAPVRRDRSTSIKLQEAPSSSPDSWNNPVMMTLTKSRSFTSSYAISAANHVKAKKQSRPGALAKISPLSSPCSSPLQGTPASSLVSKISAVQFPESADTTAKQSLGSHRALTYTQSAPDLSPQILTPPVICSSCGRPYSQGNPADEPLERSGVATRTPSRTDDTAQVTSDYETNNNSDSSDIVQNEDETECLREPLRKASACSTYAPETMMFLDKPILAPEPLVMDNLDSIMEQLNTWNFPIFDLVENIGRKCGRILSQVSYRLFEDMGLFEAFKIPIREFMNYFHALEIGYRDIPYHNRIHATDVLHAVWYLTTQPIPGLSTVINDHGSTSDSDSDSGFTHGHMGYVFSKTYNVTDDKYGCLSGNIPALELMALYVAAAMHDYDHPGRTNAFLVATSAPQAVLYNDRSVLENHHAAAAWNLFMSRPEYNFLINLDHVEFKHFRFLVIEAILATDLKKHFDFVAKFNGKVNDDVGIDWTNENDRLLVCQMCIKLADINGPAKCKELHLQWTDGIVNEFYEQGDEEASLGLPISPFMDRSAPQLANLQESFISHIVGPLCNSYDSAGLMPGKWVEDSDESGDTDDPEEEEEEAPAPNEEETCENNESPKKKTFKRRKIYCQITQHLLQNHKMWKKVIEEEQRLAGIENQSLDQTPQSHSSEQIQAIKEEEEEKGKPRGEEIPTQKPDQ

| Compound | tested on | assay | system | setting | how to read | quantity | result |
| --- | --- | --- | --- | --- | --- | --- | --- |
| CN(C)CCCN1C(=O)CSC1c1ccccc1Cl (stereo not shown) | uncharacterized protein (Anopheles gambiae, UniProt Q7QFG0) | enzyme activity, inhibitor, Ellman |  | together with: 1 mM acetylthiocholine |  | IC50 | > 200 µM |
| C[C@H](N)C(=O)N[C@@H](CC(N)=O)C(=O)N[C@@H](CS)C(=O)N1CCC[C@H]1C(=O)N[C@@H](CC(N)=O)C(=O)N[C@@H](Cc1ccc(O)cc1)C(=O)N[C@@H](CCCCN)C(=O)N[C@@H](CS)C(=O)N[C@@H](CCCNC(=N)N)C(N)=O | Pyruvate kinase PKM (PKM, Homo sapiens, UniProt P14618) | enzyme activity, inhibitor, fluorometric |  | 2 h, 37 °C, enzyme 500 nM |  | IC50 | > 1000 µM |
| COc1ccccc1-c1n[nH]c2nc(NC3CCN(C(=O)Cc4ccc(F)cc4F)CC3)ncc12 |  | bead binding, competition bead pull-down, refers to: LINJ.35.3390 | Leishmania donovani extract | 10 µM | baseline: vehicle | relative abundance | 0.96 |
| O=C1NC2(CC2)COc2ncc(F)cc2[C@H]2COCCN2c2ccn3ncc1c3n2 |  |  | Sprague-Dawley rat, male, serum | oral, 5 mg/kg/day, end of recovery, 4-week subacute toxicity |  | serum hepatic lipase activity | 3 ± 0.6 U/L |
| O=S(=O)(N/N=C/c1ccc(OS(=O)(=O)c2ccc(Cl)cc2)cc1)c1cc(Cl)ccc1Cl | Carbonic anhydrase 2 (CA2, Homo sapiens, UniProt P00918) | enzyme activity, inhibitor, absorbance |  |  |  | IC50 | 0.0279 µM |
| CC(C)C[C@H](NC(=O)[C@H](CCCNC(=N)N)NC(=O)[C@H](CCCNC(=N)N)NC(=O)CNC(=O)[C@H](C)NC(=O)[C@@H](N)Cc1ccc(O)cc1)C(=O)N[C@@H](CCCCN)C(=O)NCC(=O)N[C@@H](C)C(=O)N[C@@H](CCCNC(=N)N)C(=O)N[C@@H](CCCNC(=N)N)C(=O)N[C@@H](CC(C)C)C(=O)N[C@@H](CCCCN)C(=O)N[C@@H](CC(C)C)C(=O)N[C@@H](CO)C(=O)N1CCC[C@H]1C(=O)O | Mitogen-activated protein kinase 14 | enzyme activity, inhibitor, fluorescence |  | pH 7.4 |  | IC50 | 11.5 µM |
| O=c1[nH]c2ccccc2c(=O)o1 | Rhomboid protease AarA (Providencia stuartii, UniProt P46116) | enzyme activity, inhibitor, fluorescence |  |  |  | IC50 | 16.1 µM |
| CC(C)[C@H](N)C(=O)N[C@@H](CC(N)=O)C(=O)N[C@@H](Cc1ccc(O)cc1)C(=O)N[C@@H](CC(=O)O)C(=O)O | Angiotensin-converting enzyme (ACE, Homo sapiens, UniProt P12821) | enzyme activity, inhibitor |  |  |  | IC50 | ~3090 µM |
| CC(C)C[C@H](NC(=O)[C@H](CCC(N)=O)NC(=O)[C@H](CCCCN)NC(=O)[C@H](CCCNC(=N)N)NC(=O)[C@H](CCCCN)NC(=O)[C@H](CCC(=O)O)NC(=O)[C@H](CCCNC(=N)N)NC(=O)[C@H](CCCNC(=N)N)NC(=O)CNC(=O)[C@H](CC(N)=O)NC(=O)[C@H](C)NC(=O)[C@@H](N)Cc1ccc(O)cc1)C(=O)N[C@H](C(=O)N[C@@H](CC(C)C)C(=O)N1CCC[C@H]1C(=O)N[C@@H](CO)C(=O)O)[C@@H](C)O | Mitogen-activated protein kinase 14 | enzyme activity, inhibitor, fluorescence |  | pH 7.4 |  | IC50 | 65.7 µM |
| Cc1ccc2c(n1)c(-c1cccc(S(C)(=O)=O)c1)c(C)n2C/C(F)=C/CN | CYP2D6 | enzyme activity, inhibitor | human, liver microsomes |  |  | IC50 | 6.72 µM |
| CCCC[C@H](NC(=O)[C@@H](NC(=O)[C@@H](N)Cc1ccc(O)cc1)C(C)C)C(=O)NCC(=O)N[C@@H](Cc1c[nH]cn1)C(=O)N[C@H](Cc1ccc2ccccc2c1)C(=O)N[C@@H](CCCNC(=N)N)C(=O)N[C@H](Cc1c[nH]c2ccccc12)C(=O)N[C@@H](CC(=O)O)C(=O)N[C@@H](CCCNC(=N)N)C(=O)N[C@@H](Cc1ccccc1)C(=O)NCC(=O)O | Melanocortin receptor 4 (MC4R, Homo sapiens, UniProt P32245) | antagonist, split-luciferase cAMP sensor |  | 12 min, together with: 70 nM α-MSH (EC90) |  | IC50 | 0.0637 µM and 0.0603 µM |
| [CH3][Ti+2][O]C(=O)c1ccc([S][Au][PH](c2ccccc2)(c2ccccc2)c2ccccc2)cc1.c1cc[cH-]c1.c1cc[cH-]c1 | MAP kinase-activated protein kinase 3 (MAPKAPK3, Homo sapiens, UniProt Q16644) | enzyme activity, inhibitor, radiometric |  |  |  | IC50 | 0.317 µM |
| Nc1ccn(C2OC(COP(=O)(O)OP(=O)(O)OP(=O)(O)O)C(O)C2(F)F)c(=O)n1 (stereo not shown) | pyrG (Escherichia coli, UniProt P0A7E5) | enzyme activity |  | together with: 6.0 mM glutamine, 1.0 mM ATP, 0.20 mM UTP |  | IC50 | 7.3 µM |
| CC(C)C[C@H](NC(=O)[C@H](CCCNC(=N)N)NC(=O)[C@H](CC(C)C)NC(=O)[C@@H](NC(=O)[C@H](CC(N)=O)NC(=O)[C@H](CCCCN)NC(=O)[C@H](CCCCN)NC(=O)[C@H](CCCNC(=N)N)NC(=O)[C@H](CCCCN)NC(=O)[C@@H](NC(=O)[C@H](CCCCN)NC(=O)[C@H](CCC(=O)O)NC(=O)[C@H](C)NC(=O)[C@@H](N)Cc1ccc(O)cc1)C(C)C)C(C)C)C(=O)N[C@@H](CS)C(=O)N[C@@H](CS)C(=O)O | Mitogen-activated protein kinase 14 | enzyme activity, inhibitor, fluorescence |  | pH 7.4 |  | IC50 | 2.95 µM |
| CC(C)CN(CCCC[C@H](NC(=O)[C@H](CCCN1CCOCC1)NC(=O)[C@@H](NC(=O)[C@H](Cc1ccccc1)NC(=O)c1ccc(C(C)(C)C)cc1)C(C)C)C(=O)N[C@@H](CO)C(N)=O)C1CC2CCC1C2 (stereo partly shown) | Chromobox protein homolog 8 (Homo sapiens, UniProt Q9HC52) | ligand displacement, TR-FRET |  |  |  | IC50 | 0.086 µM |
| O=C(O)CCn1c(=O)oc2cc(Cl)c(Cl)cc21 | cGMP-inhibited 3',5'-cyclic phosphodiesterase 3A (PDE3A, Homo sapiens, UniProt Q14432) | enzyme activity, inhibitor |  |  |  | IC50 | > 100 µM |
| O=C(O)C(/C=C/c1ccc(Cl)cc1)=N\Nc1nc(-c2ccc(Cl)cc2)cs1 | BCHE | enzyme activity, inhibitor |  |  |  | IC50 | 5.01 µM |

| Compound | tested on | assay | system | setting | how to read | quantity | result |
| --- | --- | --- | --- | --- | --- | --- | --- |
| CCOC(=O)C(Cc1ccccc1)NC(=O)N1CCN(CC(OCc2cccc(C)c2)c2ccc(Cl)cc2)CC1 (stereo not shown) | Lanosterol 14-alpha demethylase (ERG11, Candida albicans, UniProt P10613) | enzyme activity, inhibitor, mass spectrometry |  |  |  | IC50 | 0.488 µM |
| CCCCCCCCCCCCCCN(O)C(=O)CCCCC[C@@H]1NC(=O)[C@H]2CCCN2C(=O)[C@H](Cc2ccccc2)NC(=O)[C@H](Cc2ccccc2)NC1=O | Histone deacetylase 1 (HDAC1, Homo sapiens, UniProt Q13547) | enzyme activity, inhibitor, fluorescence |  |  |  | IC50 | 0.078 µM |
| COc1ccccc1NC(=S)NCCN(C)C | uncharacterized protein (Apis mellifera, UniProt A0A7M6W5G5) | enzyme activity, inhibitor, Ellman |  | pH 7.4, 30 °C, together with: 1 mM acetylthiocholine |  | IC50 | 13 µM |
| O=C(Nc1ccc(-c2ccccc2)cc1)N[C@H]1[C@H]([C@H](O)[C@H](O)CO)OC(C(=O)O)=C[C@@H]1O | Sialidase-3 (Homo sapiens, UniProt Q9UQ49) | enzyme activity, inhibitor |  |  |  | IC50 | > 500 µM |
| CC[C@H](C)[C@H](NC(=O)[C@H](CCCCN)NC(=O)[C@H](CC(C)C)NC(=O)[C@H](CCCCN)NC(=O)[C@H](CCCNC(=N)N)NC(=O)[C@H](CCCCN)NC(=O)[C@H](CCCCN)NC(=O)[C@@H](NC(=O)[C@H](CCCCN)NC(=O)[C@H](CC(N)=O)NC(=O)[C@H](CCCCN)NC(=O)[C@@H](NC(=O)[C@H](C)NC(=O)[C@@H](N)Cc1ccc(O)cc1)[C@@H](C)O)C(C)C)C(=O)N[C@H](C(=O)N[C@@H](CCCNC(=N)N)C(=O)O)[C@@H](C)CC | Mitogen-activated protein kinase 14 | enzyme activity, inhibitor, fluorescence |  | pH 7.4 |  | IC50 | 1.3 µM |
| O=C(c1cc(Cc2n[nH]c(=O)c3ccccc23)ccc1F)N1CC(CNC2CC2)C1 | Protein mono-ADP-ribosyltransferase PARP12 (PARP12, Homo sapiens, UniProt Q9H0J9) | enzyme activity, inhibitor |  |  |  | IC50 | > 10 µM |
| CC(C)N1CCCCC1C(=O)NC(Cc1ccc(-c2ccccc2)cc1)B(O)O (stereo not shown) | PSMB6/PSMB7 (Homo sapiens, UniProt P28072+Q99436) | β1c caspase-like activity, inhibitor |  | constitutive proteasome, together with: Z-LLE-AMC |  | IC50 | > 10 µM |
| CC[C@H](C)[C@H](NC(=O)[C@H](CC(C)C)NC(=O)[C@H](C)NC(=O)[C@@H]1CCCN1C(=O)[C@H](C)NC(=O)[C@H](CCCNC(=N)N)NC(=O)[C@@H]1CCCN1C(=O)[C@H](CCCNC(=N)N)NC(=O)[C@H](CCC(N)=O)NC(=O)[C@H](CCCCN)NC(=O)[C@@H]1CCCN1C(=O)[C@H](C)NC(=O)[C@@H](N)Cc1ccc(O)cc1)C(=O)N[C@H](C(=O)N1CCC[C@H]1C(=O)N[C@H](C(=O)O)[C@@H](C)O)[C@@H](C)CC | Mitogen-activated protein kinase 14 | enzyme activity, inhibitor, fluorescence |  | pH 7.4 |  | IC50 | 54 µM |
| CC(C)NCCN1C(=O)CSC1c1ccc(F)cc1 (stereo not shown) | uncharacterized protein (Apis mellifera, UniProt A0A7M6W5G5) | enzyme activity, inhibitor, Ellman |  | together with: 1 mM acetylthiocholine |  | IC50 | > 1000 µM |
| CC[C@H](C)[C@H](NC(=O)[C@@H](NC(=O)[C@H](CCC(=O)O)NC(=O)[C@H](CCSC)NC(=O)[C@H](CCC(N)=O)NC(=O)[C@H](CCCNC(=N)N)NC(=O)[C@H](CCCNC(=N)N)NC(=O)[C@H](CC(N)=O)NC(=O)[C@H](CCCNC(=N)N)NC(=O)[C@H](CC(C)C)NC(=O)[C@H](C)NC(=O)[C@@H](N)Cc1ccc(O)cc1)C(C)C)C(=O)N[C@@H](CO)C(=O)N[C@@H](CC(C)C)C(=O)N[C@@H](CCCNC(=N)N)C(=O)N[C@@H](CC(C)C)C(=O)O | Mitogen-activated protein kinase 14 | enzyme activity, inhibitor, fluorescence |  | pH 7.4 |  | IC50 | 49 µM |
| COc1ccc(-c2csc(NN=C(C=Cc3ccc(Cl)cc3)C(=O)O)n2)cc1 | BCHE | enzyme activity, inhibitor |  |  |  | IC50 | 8.02 µM |
| CCN(CC)S(=O)(=O)c1ccc2nnn(OCc3ccc(C#N)cc3)c2c1 | CTSL | enzyme activity, inhibitor, FRET |  |  |  | IC50 | > 100 µM |
| CNC(=O)C[C@H](Cc1ccc(F)cc1)NC(=O)[C@@H](Cc1ccc(Cl)cc1Cl)NC(=O)[C@H](N)Cc1ccccc1C#N | Furin (FURIN, Homo sapiens, UniProt P09958) | enzyme activity, inhibitor |  |  |  | IC50 | > 10 µM |
| CCN(CC)S(=O)(=O)c1ccc2nnn(OCc3ccccc3)c2c1 | CTSL | enzyme activity, inhibitor, FRET |  |  |  | IC50 | > 100 µM |
| CC(C)C[C@H](NC(=O)[C@H](CC(C)C)NC(=O)[C@H](CCCNC(=N)N)NC(=O)[C@H](CC(C)C)NC(=O)[C@H](CCCCN)NC(=O)[C@@H]1CCCN1C(=O)[C@H](CCCNC(=N)N)NC(=O)[C@H](CCCCN)NC(=O)[C@H](CC(C)C)NC(=O)[C@H](CCCNC(=N)N)NC(=O)[C@H](Cc1ccccc1)NC(=O)[C@H](CCCCN)NC(=O)[C@H](CCCCN)NC(=O)[C@H](C)NC(=O)[C@@H](N)Cc1ccc(O)cc1)C(=O)N[C@@H](CCCCN)C(=O)O | Mitogen-activated protein kinase 14 | enzyme activity, inhibitor, fluorescence |  | pH 7.4 |  | IC50 | 1.46 µM |
| Cc1nc(N2CCC(N(C)c3cc(C(=O)NCCN4CCCC4)cnn3)CC2)nc(C)c1CC(C)C | CYP2D6 | enzyme activity, inhibitor |  |  |  | IC50 | 5.97 µM |
| CCc1nnc(-c2c(OC)cc(-c3cnc4cc(-c5cnn(C)c5)ccn34)cc2OC)o1 | CYP2D6 | enzyme activity, inhibitor |  |  |  | IC50 | > 10 µM |
